Published values gathered from unrelated publications.
Every numbered part comes from another study and shows a few of its results, in no order.

Study 1
Target: RING finger protein unkempt homolog, zinc fingers 1-6, GST-SBP tag (UNK, Homo sapiens, UniProt Q9C0B0, residues 30-357)
Sequence of UniProt Q9C0B0 (30-357, looked up): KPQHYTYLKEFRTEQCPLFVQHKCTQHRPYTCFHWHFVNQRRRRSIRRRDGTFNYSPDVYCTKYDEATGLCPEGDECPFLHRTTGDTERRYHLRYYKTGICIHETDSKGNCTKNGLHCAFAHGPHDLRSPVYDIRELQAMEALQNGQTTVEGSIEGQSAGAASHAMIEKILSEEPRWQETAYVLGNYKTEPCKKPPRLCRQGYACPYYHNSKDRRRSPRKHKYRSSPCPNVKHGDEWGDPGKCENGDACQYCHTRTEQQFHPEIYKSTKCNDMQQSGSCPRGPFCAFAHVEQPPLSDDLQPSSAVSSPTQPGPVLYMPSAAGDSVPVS
Method: RNA Bind-n-Seq
Form: RNA
Sample: in vitro
Tested at: not given
Notes: RNA with constant flanks, human and mouse sites, ends assumed
Baseline: input RNA pool
Reading: higher = stronger binding
Measurement: bound/input enrichment
Shared flanks, not repeated: GGGAGUUCUACAGUCCGACGAUC … CAACAGAGGAUUGAGCAUCA
GAAACCUGCAUACCAAUUGUUGCUGGAAUUGUAGCCAGAUUUGGUGCAGUAACUGUGAUAAGUCCACUAGAAUUGAUUAGAACCAAGAUGCAGUCCAAGAAGUUUUCUUACGUGGAACUG: 1.91 ratio
UCAGAAGGGCAGCUUGGCCUAGGCCACACCAACCACGUUCGAGAACCAACCCUGGUAACAGUUCUGCAAGGGAAAAACAUCCGCCAGAUUUCAGCGGGCCGUUGCCACAGUGCUGCAUGG: 0.153 ratio
UGCUUCCUGGUCCUUAGAGGACUAAAAACAAGACCCUCAUUCCCACUUUCAUUUCCACUCUAGCAAAAACUGGGCUUGCGUUUUUCUCCAACUCCUCGUUUAUAUCCUCCCUUCCAUGUC: 0.755 ratio
GGGAUCCAGCAAGGCCUUCUCAGCCAGUCAACACGCACAGCCACCUUCCAGCAGAGAUUUGAUGCCCGGCAGAAGAUUGGCCUCUCAGAUGCCCGGCUCAAACUGGGAGUCAAGGAUGCC: 0.218 ratio
AAUAAUCUUCAAAAGUAUAUAGAGAUAUAUGUACAGAAGGUGAAUCCAAGUCGACUUCCUGUAGUUAUUGGAGGAUUACUUGAUGUUGACUGUUCUGAAGAUGUCAUAAAAAACUUGAUU: 0.262 ratio
AGGAAAAACCAAACUACAAAAAGAUUUAUUUAUAAUAUUCCACCUAAUAAUGAAACGAAUUUAGAAGAUUGCUCAGUAAUGCAGCCACCUGUUGCCUAUCCAGAAGAAAAUACACUACUC: 21 ratio
AUUUUUGGGAAGGUGCAAGGGGUGUUUUUCCGUAAGCAUACUCAGGCUGAGGGUAAAAAGCUGGGAUUGGUAGGCUGGGUCCAGAACACUGACCGGGGCACAGUGCAAGGACAAUUGCAA: 0.56 ratio
UUCUUUUCUAAAACCUUGUUUAACUGCCUUGUUUAUGGACCAGAAAAUACCCAGCCAAUUUUAGAUGAUGUUUCAGACUUUGAUGUGGCACAGAUUAUAAUCAGGAUAAAUACUGCAACA: 1.21 ratio

Study 2
Target: Sal-like protein 4, full length isoform A (SALL4, Homo sapiens, UniProt Q9UJQ4, residues 1-1053)
Sequence of UniProt Q9UJQ4 (whole entry, looked up): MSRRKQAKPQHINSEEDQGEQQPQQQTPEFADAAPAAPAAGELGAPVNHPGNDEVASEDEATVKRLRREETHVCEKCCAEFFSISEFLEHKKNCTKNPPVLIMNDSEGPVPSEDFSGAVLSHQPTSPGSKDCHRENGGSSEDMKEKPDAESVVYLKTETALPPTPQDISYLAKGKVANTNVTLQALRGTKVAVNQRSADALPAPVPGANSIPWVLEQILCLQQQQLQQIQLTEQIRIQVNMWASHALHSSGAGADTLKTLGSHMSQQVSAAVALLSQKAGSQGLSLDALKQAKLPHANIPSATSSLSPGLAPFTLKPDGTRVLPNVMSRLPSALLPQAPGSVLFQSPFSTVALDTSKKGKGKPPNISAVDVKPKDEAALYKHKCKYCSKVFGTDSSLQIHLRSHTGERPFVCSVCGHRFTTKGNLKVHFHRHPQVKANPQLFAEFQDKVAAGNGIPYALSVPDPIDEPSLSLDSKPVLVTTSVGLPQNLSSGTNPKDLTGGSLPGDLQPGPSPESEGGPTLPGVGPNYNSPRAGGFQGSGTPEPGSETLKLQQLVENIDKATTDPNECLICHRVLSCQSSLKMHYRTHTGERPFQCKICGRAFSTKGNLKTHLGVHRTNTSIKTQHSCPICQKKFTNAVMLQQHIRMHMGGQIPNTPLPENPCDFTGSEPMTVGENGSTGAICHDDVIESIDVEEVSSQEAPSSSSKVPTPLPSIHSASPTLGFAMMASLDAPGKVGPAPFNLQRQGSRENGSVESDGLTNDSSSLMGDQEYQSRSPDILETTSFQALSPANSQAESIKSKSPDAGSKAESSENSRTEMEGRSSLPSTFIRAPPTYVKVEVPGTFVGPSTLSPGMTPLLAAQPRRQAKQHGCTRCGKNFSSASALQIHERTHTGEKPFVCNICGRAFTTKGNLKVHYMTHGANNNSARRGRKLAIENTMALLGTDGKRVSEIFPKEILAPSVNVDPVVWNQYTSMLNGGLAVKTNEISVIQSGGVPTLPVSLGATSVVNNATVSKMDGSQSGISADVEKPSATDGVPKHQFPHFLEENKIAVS
Method: universal PBM
Form: double-stranded DNA, one strand shown
Sample: in vitro
Tested at: 600 nM
Notes: 8-mer, flanks averaged, mean of replicates
Reading: higher = stronger binding
Measurement: E-score
AGGTTTCG: -0.172
CCCGCGCA: -0.281
AAGTATAG: 0.168
CTAAGCCA: -0.148
GGGAAATA: 0.226
TTCTCAAA: 0.258
ACGCCAGG: -0.213
CGCAGATA: 0.0576
ACGGACGA: -0.0329
GCGCTATA: 0.176
AGCTTCGC: -0.129
GAATGCTC: -0.134
ATAACTGA: 0.255
CTTATTGC: 0.0352
ACTCAGCA: -0.0549
ATGTCTAA: 0.281
ACTGCTTC: -0.166
CGGTGTTA: -0.0585
AATAAGGC: 0.174
CAAACCGC: -0.254
GTATAGGA: 0.126
CTCCTGGC: -0.222
CTGGGGTC: -0.266
GAAGGCAA: 0.0246
ATGGCGCG: -0.096

Study 3
Target: RNA binding protein fox-1 homolog 2, RRM domain, GST-SBP tag (RBFOX2, Homo sapiens, UniProt O43251-10, residues 100-194)
Method: RNA Bind-n-Seq
Form: RNA
Sample: in vitro
Tested at: 365 nM
Notes: natural RNA segment, single round, ends assumed
Baseline: no-protein control
Reading: higher = stronger binding
Measurement: RBNS enrichment (R)
Shared flanks, not repeated: GGGAGUUCUACAGUCCGACGAUC … UGGAAUUCUCGGGUGCCAA
Residues (chain): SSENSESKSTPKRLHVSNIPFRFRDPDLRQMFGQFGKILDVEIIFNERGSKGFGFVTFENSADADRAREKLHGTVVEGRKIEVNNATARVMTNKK
CAAGAGAGGUGCUAUCACAUAGAUCUAGUCUGAAGUCUGGAACACUUUCCUCUUCUAUGACCCCUCUCUCCCCAGUAUUAUCUUACUUGCAAAAUGGAGACCAAAUUCUA: 0.262
AUCUGAAUAGUGUGCUGGCGGGAGUGGUUUGUCGGAGCAGCCACACUGAUUCGGUGUUUUUGCAGUGCAUUCAACUUCUACAGAAGUUAACAUAUAAUGUCAAAAUUUUC: 0.742
GCCCCUCAUUGUUACUGCCUUGUGAGAUAAAAACUGAUUAAACCUUUGUGGCUGUGGUUGGCUGACAUGGGGUCUGUGUUUCACUAACUAACUAACUAACUGCAGGUGGU: 0.737
UUCAGCCCGUGUCUCAUACACUUGAAGAUGUCUAUAUUGAGUUUGAAGAGGUUAUAAAGGGACAGAUGGUCAUAGAAACCUUUGCAGAGGCAGUUGUGCCAACCCAAGGG: 0.845
UAAUGUGGAAGAGCCAUUUCAUAGGUCAUAGGUGGUAUGGUAUAUUUCUUCAGAGUCAACCUUGGCCCUGAGAAGUAUGUCCUCCUGGUGUGCUCAGGCUCAACGGCAGU: 0.327
CAUACACCUGAGAGGAAUUGAGGGAGUAUUGGUGUCUAGGUUGUCAUGUUUCUGUUUUGUGACACAGUGGAUGGAAAGGUUUGUCCUCUUCCUACUAUAGCAUGAACCCU: 0.334
CCAAGAUCUAAUUUUAAAAAUGUACGAGGACUUUGUGCUGAAAAUACAGAGUAUUUUUUUAAAGUAAGGCUGUCUUGGCUUAAAAGCAGAUUACAGAAAUGUAAGCCAGC: 0.56
ACCCUAGUUUAAAAAGCGGUUCAAGAAUAAUGUAAACUUAUACAUAUAGCUUAUUUUCUUCAUUUACUAGAGGAGGAAAAAUAGAACCAAAAAAUGCAUGAACUCCUGCU: 0.606

Study 4
Target: Interferon regulatory factor 3, full length, phosphomimetic (IRF3, Homo sapiens, UniProt Q14653, residues 1-427, S386D/S396D/S398D/S402D/T404D/S405D)
Method: protein-binding microarray
Form: double-stranded DNA, one strand shown
Sample: in vitro
Tested at: 2540 nM top
Notes: 60-bp whole probe
Together with: salmon DNA 0.4 mg/ml
Baseline: random background probes
Reading: higher = stronger binding
Measurement: fitted relative affinity
Shared flanks, not repeated: GCCTAGCAC … GTCTTGATTCGCTTGACGCTGCTG
Target sequence (chain): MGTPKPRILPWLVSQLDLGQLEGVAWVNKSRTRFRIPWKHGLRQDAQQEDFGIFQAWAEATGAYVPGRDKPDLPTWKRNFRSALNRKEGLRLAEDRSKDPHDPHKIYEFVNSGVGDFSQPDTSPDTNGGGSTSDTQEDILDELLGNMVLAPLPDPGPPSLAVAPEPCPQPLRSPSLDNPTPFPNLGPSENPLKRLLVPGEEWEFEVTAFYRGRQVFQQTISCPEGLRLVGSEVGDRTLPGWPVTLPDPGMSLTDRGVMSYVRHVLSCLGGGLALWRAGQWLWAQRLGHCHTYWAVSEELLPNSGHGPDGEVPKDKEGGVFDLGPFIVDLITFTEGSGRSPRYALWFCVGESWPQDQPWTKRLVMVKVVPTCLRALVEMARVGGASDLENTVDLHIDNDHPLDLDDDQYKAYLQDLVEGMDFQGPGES
GACGAACTGAGACTGGCGACGTGCTAG: -0.319 z-score
CTGTTTTTGCTTTCTTTTTGGTGCTAG: 2.9 z-score
GACGGTATCCTACTGCAGACGTGCTAG: 2.77 z-score
GACGGACTCGGACTGGGGACGTGCTAG: -0.328 z-score
GACGGTTTCGGTATCGGGAAGTGCTAG: 8.56 z-score
TTAGGTATCCTTATCCTTCAGTGCTAG: 5.34 z-score
TTAGGACTGGGTTATCGGTTAGTGCTA: -0.539 z-score
TTAGATATCAGTATCGATTTGTGCTAG: 2.73 z-score
GACGGTTCCCTACTGCTGACGTGCTAG: 2.48 z-score
TTAGGTACCGACTTTCGGTTAGTGCTA: 2.73 z-score
TTAGGTCTCGGTCTCGGTCAGTGCTAG: 1.04 z-score
TTAGGTCACCTTCTCCTTTAGTGCTAG: 2.41 z-score
TCAAGTAGCTTTCTGAGACTGTGCTAG: 0.0901 z-score
TTTTTTTTGTATTTTTGATAGTGCTAG: 1.28 z-score
GCCGGACTGCTTATCCTGACGTGCTAG: 0.118 z-score
TTAGGTAACCTACTGCTTTAGTGCTAG: 0.629 z-score
CACTTTGGATAACCAAAAACGTGCTAG: 1.11 z-score
GACGGTATCGGACTAGGGACGTGCTAG: 2.07 z-score
TCAGAAATTCCTCTGAAACTGTGCTAG: 0.0408 z-score

Excerpt of the above (study 2):
CAAACCGC: -0.254
GTATAGGA: 0.126
CTCCTGGC: -0.222
CTGGGGTC: -0.266
GAAGGCAA: 0.0246
ATGGCGCG: -0.096
